Published values pooled from the literature.
Every numbered part comes from another study and shows a few of its results, in no order. Substitutions count along the parent as printed.

Block 1
Target: CCNE2, cyclin fold, Cln2 fusion (human)
Method: yeast growth competition, sequencing
Sample: yeast
Notes: weak parent motif
Baseline: not given
Direction: higher = stronger binding
Parent: RB1 docking peptide (human); PKPLKKLRFDIEG
`K5L` — result for “normalised enrichment score”: -1.06.
`P3T`: “normalised enrichment score” -0.44.
For `G13E`, “normalised enrichment score” read 1.16.
Under “normalised enrichment score”, `F9Q` is recorded as 0.35.
`F9N` — result for “normalised enrichment score”: 1.27.
For `L4A`, “normalised enrichment score” read 0.645.
`P3M`: “normalised enrichment score” 0.695.
`R8F`: “normalised enrichment score” 0.0527.
`F9H`: “normalised enrichment score” 0.332.
For `K5W`, “normalised enrichment score” read 0.678.
`E12F` — result for “normalised enrichment score”: 1.05.
`P1C` — result for “normalised enrichment score”: 1.85.

Block 2
Target: RNA binding protein fox-1 homolog 2, RRM domain, GST-SBP tag (RBFOX2, Homo sapiens, UniProt O43251-10, residues 100-194)
Method: RNA Bind-n-Seq
Form: RNA
Sample: in vitro
Tested at: 365 nM
Notes: natural RNA segment, single round, ends assumed
Baseline: no-protein control
Direction: higher = stronger binding
All sequences stand within: GGGAGUUCUACAGUCCGACGAUC … UGGAAUUCUCGGGUGCCAA
Target sequence (chain): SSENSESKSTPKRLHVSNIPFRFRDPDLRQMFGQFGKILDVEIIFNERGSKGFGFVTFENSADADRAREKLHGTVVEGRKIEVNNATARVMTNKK
Under “RBNS enrichment (R)”, `AUCACAAGCAAAAGGUCAGAACAGUUAAACACUGCCUUUCCUCCUCCUCUUAUUUUAUGAUAAAAGCAAAUGUGGCCUUCUCAGUAUCAUUCGAUUGCUAUUUGAGACUU` is recorded as 0.239.
`GGUGCCUCUGGACUGCAGGAGAAAGGCGUCGUGCCAGGCAGUAUCCUGUGGAGGGAGGAGGGUGUACGUUCGUUUACUAUGGAUAGUUUUUCCUUUGAAUUAAAUUGUAG` — result for “RBNS enrichment (R)”: 0.659.
`UAGAUGUAGAUUCAUCUUUUAACGUUUCUUCAAAUUUGUUUCUGUCAGGCUUUGUGUUAUUUUAAAUGGUUUUUUAAAAUUUUCUUCUAUGUUUUCAAUUACCUAAAGAC`: “RBNS enrichment (R)” 0.615.
`CACCCUCCCAUUCCACAUUCCCCAAUCUAGAGCCUUGGCCACUCUCUCCUGAAGGACCUGGGUCCCUUCCCCCGGAGCCUGUGCCUUGGGGCAGGGGAACCCCAAAGUAA`: “RBNS enrichment (R)” 0.433.
For `AAAUAAUACCAAGUAAAAUAAUACAGAUAUUAUUAAAGUUUCUGGUUUUGAGGUGUUGUAGAUAAAUGUAUUUAUGUGCCUAGUGGGGAAUCCAAUAUUAUGAAUAUGAA`, “RBNS enrichment (R)” read 1.29.
`CCUCUGGUUUCUAAUACUGGCAGGACCAACACACAUACUUUAGUGGGAAUAUAAUCUGUUUAGACGAUAAUAGAGGGAAAUGCCAUAAUUAACAAAUCUCCCUUCACUCA`: “RBNS enrichment (R)” 0.438.
`AUGGCCAUUCUACCCAGAUAGGUUUUAGCUUAUAUAUAGGACAUCAGAUUCCCUGGAAUCCUUGGUUCAGGAAGGUGCUUGGGAAAGGGGUGUAGCCAGAAUAUUUUUUC`: “RBNS enrichment (R)” 0.543.
`CUGUGGAAGAAGGAAGCUUUUGCGGUUGUUUCCUUGCUCCUGCUAGUAAGUCCAUGCCUUCAAUAGGAUUAGAGCCAACUUCAGGAUUCUGGAAUGUUAGGAAGAGCAGC`: “RBNS enrichment (R)” 0.886.
Under “RBNS enrichment (R)”, `AUUUAAUUCCAAAGGUGAGAGUUGGAGUGAGAUGUCUUCCAUAUCUAUACCUUUGUGCACAGUUGAAUGGGAACUGUUUGGGUUUAGGGCAUCUUAGAGUUGAUUGAUGG` is recorded as 6.03.
Under “RBNS enrichment (R)”, `CUAUCAUGUGCAUAGGCAGAAGCUGCUGGUAGAGGGAGUGGUGGCUUUCUAGUGCCCAUCUUGGCUCUCCAGCUGCAAGUUGCACAGCCAUAACCUAAGACUUUAAAAUA` is recorded as 0.229.
For `ACCCAGCAACCAGCCUCUCAUUUUCAGGGCAGGCAGCAGAGACCCGGGUCUCUUGCCUUGAGAUGGGGGGAGUCCUAGGAAGAAGAGUGGUCUGGUCCUGUUUCUGCAGA`, “RBNS enrichment (R)” read 0.511.
Under “RBNS enrichment (R)”, `UUUAUAGCAGGUCCCAGUGAACCACAAGAAUGGCGAGGGUUAUCUGGUUACAGUUGGAUCAAUCAGUAUAUAUCAGAUUUCUGGUGUUUCAAGCAAGAAGCGGGCGGAGU` is recorded as 0.617.

Block 3
Target: Interferon regulatory factor 5, full length, phosphomimetic (IRF5, Homo sapiens, UniProt Q13568-2, residues 1-514, S451D/S453D/S456D/S462D)
Method: protein-binding microarray
Form: double-stranded DNA, one strand shown
Sample: in vitro
Tested at: 940 nM top
Notes: 60-bp whole probe
Together with: salmon DNA 0.4 mg/ml
Baseline: random background probes
Direction: higher = stronger binding
All sequences stand within: GCCTAGCAC … GTCTTGATTCGCTTGACGCTGCTG
Under “fitted relative affinity”, `TGAGGTTTCCTTTTCCTTTAGTGCTAG` is recorded as 1.33 z-score.
`TTAGGTTTCGACACTGGGCTAGTGCTA`: “fitted relative affinity” 7.81 z-score.
Under “fitted relative affinity”, `TTAGGTTTCGGATTCGGTTAGTGCTAG` is recorded as 8.57 z-score.
`GACGGACTGGACTAACGGGACGTGCTA` — result for “fitted relative affinity”: -0.999 z-score.
`TTAGGGTTCCTTTTCCTTTAGTGCTAG`: “fitted relative affinity” 0.071 z-score.
For `TTGGGTATCCTTTTCCTTTAGTGCTAG`, “fitted relative affinity” read 0.66 z-score.
Under “fitted relative affinity”, `TCATTTCTCTTTCCTTCACTGTGCTAG` is recorded as 2.25 z-score.
Under “fitted relative affinity”, `ATAGGTTTCGACTTTCGGTTAGTGCTA` is recorded as 8.54 z-score.
`GACGGTTTCCTTCTCATGACGTGCTAG`: “fitted relative affinity” 1.94 z-score.
`GACGGAGTGGGACTGGGGACGTGCTAG`: “fitted relative affinity” -0.616 z-score.
For `GACGGTCGCCTACTGCTGACGTGCTAG`, “fitted relative affinity” read -0.69 z-score.
Under “fitted relative affinity”, `TTTTTTTTTTTTTTTTTGGAGTGCTAG` is recorded as 1.88 z-score.
`TCATTTATTTATTTTTAACTGTGCTAG`: “fitted relative affinity” 0.897 z-score.

Single results of other studies
The fold induction of `PhoQ, residues 284 288 289 292 302 303 TTCLQL` is reported as 4.32 (PhoP, residues 12 14 15 18 19 YHFSH (Escherichia coli, UniProt P23836); Sort-seq, item: YFP reporter; E. coli; PhoQ-PhoP variant library, together with: 10 µM Mg2+; baseline: high Mg2+ state, higher = stronger signaling).
